# Results gathered from unrelated publications.
# A part holds a random share of what one study measured.

# Series 1
# Target: RING finger protein unkempt homolog, zinc fingers 1-6, GST-SBP tag (UNK, Homo sapiens, UniProt Q9C0B0, residues 30-357)
# Sequence of UniProt Q9C0B0 (30-357, looked up): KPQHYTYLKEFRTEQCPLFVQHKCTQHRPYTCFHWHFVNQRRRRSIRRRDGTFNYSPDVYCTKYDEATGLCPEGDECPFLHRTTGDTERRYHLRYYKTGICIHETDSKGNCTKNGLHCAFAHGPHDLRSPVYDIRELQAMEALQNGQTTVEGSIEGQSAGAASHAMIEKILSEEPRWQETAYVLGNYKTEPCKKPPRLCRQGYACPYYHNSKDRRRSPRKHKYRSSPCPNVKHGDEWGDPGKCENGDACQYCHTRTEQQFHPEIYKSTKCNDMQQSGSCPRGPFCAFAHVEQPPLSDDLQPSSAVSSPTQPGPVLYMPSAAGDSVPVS
# Technique: RNA Bind-n-Seq
# Molecule type: RNA
# Sample: in vitro
# Tested at: not given
# Setting: RNA with constant flanks, human and mouse sites, ends assumed
# Baseline: input RNA pool
# Reading: higher = stronger binding
# Shared flanks, not repeated: GGGAGUUCUACAGUCCGACGAUC … CAACAGAGGAUUGAGCAUCA
Oligonucleotide,bound/input enrichment [ratio]
ACUGAAGAAGAAAAGCAACAGAUUUUACACUCAGAAGAAUUUUUAAGUUUCUUUGACCAUUCUACGAGAAUUGUAGAAAGAGCCCUUUCUGAGCAGAUUAACAUCUUCUUUGACUACAGU,0.152
GCAGUCUUGGUUGGUUAGCUAUUUGCGCGCAAAUGUUGUGAUCCUGCCAUUAUAGAUUUCUUGUUUCUGUUUUUAGUAAUGUAGUGAGUAGCUCCAGGUGCCACAUCUACUCACAGAUUU,1.57
GUUGGAGAUACACAAGUGGUUGUUUUUAAGCAUGAAAAAGAAGAUGGUGCCAUUUCUACUAUAGUUCUUCGAGGUUCUACAGACAAUCUGAUGGAUGACAUAGAAAGGGCAGUAGAUGAU,0.762
UGUCAGCUGAGAGGCUUAUACUAAAGUUAUUAUUGUUUUUCCCAAGUUCUCUGUUCUGGAUUUUCAGUUGCAUAUUAAUGUAACGGGCCAUGGGGUAUGUACAUGUAGGGGCUGAGGUUG,0.313
GAGAGAGAUGGUGCUGUCAAGGCUAUGGAAGAAAUGAAUGGUAAAGACUUGGAGGGAGAAAAUAUUGAAAUUGUUUUUGCUAAGCCACCAGAUCAGAAGAGGAAAGAAAGAAAAGCUCAG,0.266
CUGAUAGUCCUAGCAAUUGAUCACAAAAGGAGGCUCACAGCAUGUAAAUUCUCUGGUCUUUAUAGCGUUCACCUGGAAUGGACGACCCUUUUUUUUUUCCUUUGCCUUCUACUUAUUUCU,3.13
GACCGCAUCGUGCCCGUGGACAUCUACAUCCCAGGCUGCCCACCUACGGCCGAGGCCCUGCUCUACGGCAUCCUGCAGCUGCAGAGGAAGAUCAAGCGGGAGCGGAGGCUGCAGAUCUGG,0.0345
UUCCGUCAGCGCUUCCUCUACUCCCUGUAUCGACACACACACUGGGUACGCUGCGCCAAAUUUUCACCUGACGGAAGGUUGAUCGUGUCAUGUAGUGAGGAUAAAACUAUUAAAAUUUGG,0.511
UUCUUCUUCUUUGACUCAGUUCAAGUAGUUUUUACAAUAUGUACAGCAGUUCUUGCAACGAUAGCUUUUGCUUUUCUUCUCCUCCCGAUGUGCCAGUAUUUAACAAGACCCUGCUCACCU,12.4
CCGUUUCUAGUAUAUUCCUGUAAAUGUCAGUUACUGAAAAUGAGUCCAUUGUAAGUAGUUUAGCUUGUUUUUUGCAAUGCCGGCCUCAACACCACAGAGUAAAAAAAAAAAAAAAACGGU,3.23
GCUACAGGGCUCCUGGUGCUGAAGGACUUGGGCAUUCAGGUGGACCGCUACAUUGCCUCGGAGGUGUGUGAGGACUCCAUCACGGUGGGCAUGGUGCGGCACCAGGGGAAGAUCAUGUAC,0.0871

# Series 2
# Target: Interferon regulatory factor 5, full length, phosphomimetic (IRF5, Homo sapiens, UniProt Q13568-2, residues 1-514, K96S/S451D/S453D/S456D/S462D)
# Technique: protein-binding microarray
# Molecule type: double-stranded DNA, one strand shown
# Sample: in vitro
# Tested at: 250 nM
# Setting: 60-bp whole probe
# With: salmon DNA 0.4 mg/ml
# Baseline: random background probes
# Reading: higher = stronger binding
# Shared flanks, not repeated: GCCTAGCAC … GTCTTGATTCGCTTGACGCTGCTG
Oligonucleotide,log fluorescence [z-score]
GTTGTACTTTCTATCTCTGTGTGCTAG,3.6
TGAGGACTGCTTTTCCTTTAGTGCTAG,-0.0489
CACGGTATCCTTCTCCTGACGTGCTAG,-0.125
TGAGGACTGGGGACTGGGTTAGTGCTA,-0.6
TTAAGTATCGGTCTCGGTTAGTGCTAG,8.64
TTAGATTTCGGGTTTCGTTTAGTGCTA,7.35
GACGGACTGGACTTCCGGGACGTGCTA,-0.233
GACGATATCGGGTTGCGAGACGTGCTA,1.76
TTCATTATTGTTTCCTCTTTGTGCTAG,1.57
GTCAGGGGTCTTGCTCTGTAGTGCTAG,-0.876
GACGGTATCCTACTGCGGACGTGCTAG,-0.111
TTAGGTCTAGGACTGGGTTAGTGCTAG,-0.176
GACGGTATACTTCTCCTGACGTGCTAG,0.0728
TCACTTTTCATGCTCTTACTGTGCTAG,1.66
TTAGGACTGGTCACTGGGTTAGTGCTA,-0.454
TCAAGTTTCTCTTTCCTACTGTGCTAG,4.06
GACGGACTGCTACTGGTGACGTGCTAG,-0.346
AACGGTTTCGGACTGGGGACGTGCTAG,4.67
GACGGTTTCGGTTATCGGGACGTGCTA,10.3

# Series 3
# Target: Prothrombin, mature alpha-thrombin (F2, Homo sapiens, UniProt P00734)
# Technique: aptamer microarray, sandwich
# Molecule type: DNA with 2'F-ANA
# Sample: in vitro
# Tested at: 200 nM
# Setting: whole 15-mer aptamer, many near background
# With: Cy3 exosite-II aptamer, 400 nM
# Reading: higher = stronger binding
# Oligonucleotide: GGTTGGTGTGGTTGG
Modification,mean fluorescence intensity [a.u.]
2'F-ANA at 1 3 4 5 7 9 11 13 14,42.2
2'F-ANA at 2 8 9 11 12 15,662
2'F-ANA at 1 2 3 7 10 11 14,46.8
2'F-ANA at 1 3 4 7 9 11 14,63
2'F-ANA at 2 6 8 9 11 14,158
2'F-ANA at 5 6 8 9 12 13,102
2'F-ANA at 2 6 7 8 9 10 11 12 13,134
2'F-ANA at 3 4 6 7 13,424
2'F-ANA at 1 2 3 4 6 7 8 9 11 13 15,109
2'F-ANA at 1 2 4 5 6 7 11,51.8
2'F-ANA at 2 4 7 8 12 15,708
2'F-ANA at 5 7 8 9 11 12,152
2'F-ANA at 3 4 5 9 11 12 13 15,116
2'F-ANA at 1 3 4 7 9 10 14,51.5
2'F-ANA at 1 2 3 5 7 9 10 11 12 13 15,59.2
2'F-ANA at 1 3 6 7 9 11 15,189
2'F-ANA at 2 3 12 14 15,496
2'F-ANA at 2 3 4 6 8 10 11 13,171
2'F-ANA at 2 3 5 8 9 12 14 15,60
2'F-ANA at 2 4 8 9 10 12 13 15,100
2'F-ANA at 3 5 6 8 10 14 15,53.5

# Series 4
# Target: RNA binding protein fox-1 homolog 2, RRM domain, GST-SBP tag (RBFOX2, Homo sapiens, UniProt O43251-10, residues 100-194)
# Technique: RNA Bind-n-Seq
# Molecule type: RNA
# Sample: in vitro
# Tested at: 365 nM
# Setting: natural RNA segment, single round, ends assumed
# Baseline: no-protein control
# Reading: higher = stronger binding
# Shared flanks, not repeated: GGGAGUUCUACAGUCCGACGAUC … UGGAAUUCUCGGGUGCCAA
# Residues (chain): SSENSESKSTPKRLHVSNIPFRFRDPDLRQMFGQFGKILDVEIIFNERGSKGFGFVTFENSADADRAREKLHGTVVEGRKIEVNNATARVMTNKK
Oligonucleotide,RBNS enrichment (R)
GACAUUUUGGACAUGAGUUCAAGGGGGCAGGUUAAUUCCUGGCAUUGCCAGUUUUCUUCAUUCAGAAUCUGUUUGUUGAUCAAGUGACUGUCCCCGUAAAAAGUAGAAGA,0.419
CAGCCUGACCAAAAUGGUGAAACCUCCUCUCUACUAAAACUACAAAAAUUAACUGGGUGUGGUGGCGCGUGCCUGUAAUCCCAGCUACUCGGGAAGCUGAGGCAGGUGAA,0.733
CAGCUCCCAACUGUGGCCAUGGCUUAGUUGCAUAAAAGCAGGCAUGACUGGCUGUUAGGAGGUAUGGUGUGAAAGGGUAUCAGUCCAGGUAUGGCCCGGGAACUCUCUGG,2.86
AAUGUUGGAGCCGAUCCAGGGUUUGAGAGAGCUACAAAGACAUCGGGGGCUGGAGCCAUGCCUUGGUAGUGACAGACGCAGGUAAAGGUGACAUCCAUAAACAGAGGCAG,0.644
GAGAGACUGUAUAUAUUUUUUCUAAAUACUUUGUGAAAUCAUUUUUGGUAGCAAUAUCUUUGAAUAUGAUGAAUAAAAGUGACUGUGAGUGCAAAUAGAAUUAGCAGUAA,0.49
CCACCCAAUAAGUAACUGUGAGAUGUACCGAAGGGAGUUCUUACCUGAAGAAGGGUGUGAAGGCUGAACAAUCAUGGAUUUUUCUGAUCAAUUGUGCUUUAGGAAAUUAU,0.441
CCAAGUUAAACCCCUGCUUUCUGUCCUUUGCACCUUUUGCGUGAACAGAAUAUGCAUUAUUAAAGCAAAAAUAAAUAAAAGUAAAAUGCAAAUGAAAACAAGGGAGGGAA,0.421
AGAAAUCAAAUUAGUGUUUAAACCCAUUUGCAUAUUGACUUGUCAGUACCUUUAACUCAAUUUAAUAUAACAAGAAAUCGUAAAAUACUUAUAACCUAUCUUAGAGAAAU,0.466
AUUUGAUCAUUAUAAGAAGUGUGGGACUCAAGCACAGGAAACUGAACUCUUUUGGUGUCAUUGGAUGUUUCAUUUUUGACACUAAUUUUUUCUGGACAAACUCUUUAUGU,0.613
UGUCAGUGCAUACUCCUUCCUGACGAUCCCCUGGGGCAAGCUGCCGACAGUGGCGUAAACAGGAGACAUCACCCUAUACUGCGAAACUACAGAAAGGAAGACAGCUUGGC,0.534
CUCUCUGUCUUUUUCCUUCCUGAGAAACGUCCAUCUCUCUCCCUUACUAUUCCCACUUUCAUUCAAUCAACCUGCACUUCAUAUCUAGAUUUCUAGAAAAGCUUCCUAGC,2.19
ACAAGUACAUUGAACAGUAAAAAGUGUAACAGCAAAGUAUAUAUUUGAUGCCUUCUGUCUUUUCAUGAUAAUGUGCUAACAAGUUGUGUUAAUAUUUUACUCAGCCAGAG,0.329

# Series 5
# Target: Histone acetyltransferase KAT6A, both winged helices, GST fusion (KAT6A, Homo sapiens, UniProt Q92794, residues 1-181)
# Technique: protein binding microarray
# Molecule type: double-stranded DNA, one strand shown
# Sample: in vitro
# Tested at: not given
# Setting: 8-mer, flanks averaged, mean of 2 arrays, mostly near background
# Baseline: not given
# Reading: higher = stronger binding
# Residues (chain): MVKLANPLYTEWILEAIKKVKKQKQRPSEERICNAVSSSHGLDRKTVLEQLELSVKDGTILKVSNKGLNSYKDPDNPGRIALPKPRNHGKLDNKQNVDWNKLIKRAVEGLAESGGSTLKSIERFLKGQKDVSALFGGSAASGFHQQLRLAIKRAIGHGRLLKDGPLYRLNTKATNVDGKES
Oligonucleotide,E-score
ACGAGAGG,-0.115
GGATCGTA,-0.00314
CACGGGGA,0.143
GCCGAGCC,0.137
TATTTGGA,-0.218
CTTTTGTC,-0.0094
CGAATATA,-0.0404
CGAGACTA,-0.105
CCTAGAAC,-0.126
ATCAACCG,0.0869
ATTGTGGC,-0.0133
ACGACACG,0.0953
TGGGCTAA,-0.112
AAGGAACT,-0.0312
ATGTCTCC,0.0229
GCTTGGTA,-0.0826
ACCACCCG,0.175
CGCAACCC,0.0594
GTCGAAGA,-0.0819
AACGGCAA,0.191
AGTTGGAG,-0.211
ACGCCCAC,-0.0869
ACGCATAA,0.109
CTGACGCA,0.184
CATTCTGC,-0.0184

# Repeated from above (series 5):
Oligonucleotide,E-score
AGTTGGAG,-0.211
ACCACCCG,0.175
GTCGAAGA,-0.0819
ATTGTGGC,-0.0133
CGAATATA,-0.0404
CGAGACTA,-0.105
ACGAGAGG,-0.115
ACGCCCAC,-0.0869
CTTTTGTC,-0.0094
ATCAACCG,0.0869
CGCAACCC,0.0594
